Measurements from different studies.
Numbered parts are unrelated; each lists some results of a single study.
Chain of UniProt O60285 (whole entry, looked up): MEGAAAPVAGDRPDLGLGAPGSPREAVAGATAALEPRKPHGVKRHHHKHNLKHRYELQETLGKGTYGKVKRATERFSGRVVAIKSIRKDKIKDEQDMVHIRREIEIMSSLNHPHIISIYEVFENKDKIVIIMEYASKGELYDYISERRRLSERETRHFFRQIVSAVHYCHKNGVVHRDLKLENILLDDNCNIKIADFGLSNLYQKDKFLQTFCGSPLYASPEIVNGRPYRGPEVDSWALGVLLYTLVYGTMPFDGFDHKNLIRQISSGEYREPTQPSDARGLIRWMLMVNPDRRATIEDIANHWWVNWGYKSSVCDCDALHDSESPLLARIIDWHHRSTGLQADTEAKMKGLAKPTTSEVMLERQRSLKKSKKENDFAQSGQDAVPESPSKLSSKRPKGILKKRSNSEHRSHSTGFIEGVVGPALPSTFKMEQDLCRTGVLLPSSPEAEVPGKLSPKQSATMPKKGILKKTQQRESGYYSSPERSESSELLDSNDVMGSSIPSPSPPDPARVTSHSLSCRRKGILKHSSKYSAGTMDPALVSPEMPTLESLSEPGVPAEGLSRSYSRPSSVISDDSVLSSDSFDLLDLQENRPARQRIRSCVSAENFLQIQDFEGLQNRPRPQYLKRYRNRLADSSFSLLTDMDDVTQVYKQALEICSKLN
Chain of UniProt P08069 (whole entry, looked up): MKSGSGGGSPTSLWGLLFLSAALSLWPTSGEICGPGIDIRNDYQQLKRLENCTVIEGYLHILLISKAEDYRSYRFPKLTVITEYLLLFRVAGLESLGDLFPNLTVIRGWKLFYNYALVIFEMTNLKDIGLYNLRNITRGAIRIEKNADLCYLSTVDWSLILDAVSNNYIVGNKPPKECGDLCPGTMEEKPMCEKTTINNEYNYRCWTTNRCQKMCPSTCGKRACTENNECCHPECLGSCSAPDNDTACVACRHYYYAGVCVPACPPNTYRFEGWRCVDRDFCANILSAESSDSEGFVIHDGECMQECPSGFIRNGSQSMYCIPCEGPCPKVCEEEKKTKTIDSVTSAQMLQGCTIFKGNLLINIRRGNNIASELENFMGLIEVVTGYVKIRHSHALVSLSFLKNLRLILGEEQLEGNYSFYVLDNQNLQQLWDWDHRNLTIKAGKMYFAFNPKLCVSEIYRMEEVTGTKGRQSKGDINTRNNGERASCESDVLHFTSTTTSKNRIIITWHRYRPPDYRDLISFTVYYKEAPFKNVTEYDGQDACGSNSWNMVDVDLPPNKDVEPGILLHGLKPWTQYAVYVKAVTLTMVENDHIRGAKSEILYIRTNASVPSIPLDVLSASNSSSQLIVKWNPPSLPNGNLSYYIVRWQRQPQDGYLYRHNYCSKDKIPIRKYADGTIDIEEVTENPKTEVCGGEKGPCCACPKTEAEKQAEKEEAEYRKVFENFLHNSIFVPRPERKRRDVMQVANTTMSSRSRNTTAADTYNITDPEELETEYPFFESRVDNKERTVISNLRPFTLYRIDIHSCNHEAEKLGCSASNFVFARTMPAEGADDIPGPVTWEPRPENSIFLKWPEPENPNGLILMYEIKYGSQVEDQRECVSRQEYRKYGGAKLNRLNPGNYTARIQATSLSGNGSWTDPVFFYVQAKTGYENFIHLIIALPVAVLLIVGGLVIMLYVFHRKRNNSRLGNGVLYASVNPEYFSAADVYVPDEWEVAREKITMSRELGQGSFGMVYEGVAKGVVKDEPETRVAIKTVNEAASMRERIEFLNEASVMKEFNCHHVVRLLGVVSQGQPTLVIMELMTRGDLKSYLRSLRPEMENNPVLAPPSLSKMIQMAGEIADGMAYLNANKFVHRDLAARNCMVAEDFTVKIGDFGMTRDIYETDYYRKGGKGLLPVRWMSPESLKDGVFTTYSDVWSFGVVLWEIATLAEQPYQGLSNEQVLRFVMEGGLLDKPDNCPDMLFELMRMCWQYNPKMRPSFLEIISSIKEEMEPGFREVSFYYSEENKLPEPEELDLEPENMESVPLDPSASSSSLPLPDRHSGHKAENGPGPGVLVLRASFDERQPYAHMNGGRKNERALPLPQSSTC
Chain of UniProt O00141 (whole entry, looked up): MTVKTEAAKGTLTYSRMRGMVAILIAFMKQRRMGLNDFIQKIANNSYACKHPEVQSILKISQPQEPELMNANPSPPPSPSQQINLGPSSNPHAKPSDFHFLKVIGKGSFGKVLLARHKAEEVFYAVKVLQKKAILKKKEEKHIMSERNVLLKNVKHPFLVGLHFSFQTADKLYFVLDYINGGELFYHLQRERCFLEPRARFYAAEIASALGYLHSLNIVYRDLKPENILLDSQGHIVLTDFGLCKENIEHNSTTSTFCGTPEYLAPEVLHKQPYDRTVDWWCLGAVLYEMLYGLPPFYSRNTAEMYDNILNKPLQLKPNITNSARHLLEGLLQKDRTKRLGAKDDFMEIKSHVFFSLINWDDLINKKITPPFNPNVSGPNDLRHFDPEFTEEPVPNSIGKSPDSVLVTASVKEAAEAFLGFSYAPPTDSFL
Chain of UniProt P23443 (whole entry, looked up): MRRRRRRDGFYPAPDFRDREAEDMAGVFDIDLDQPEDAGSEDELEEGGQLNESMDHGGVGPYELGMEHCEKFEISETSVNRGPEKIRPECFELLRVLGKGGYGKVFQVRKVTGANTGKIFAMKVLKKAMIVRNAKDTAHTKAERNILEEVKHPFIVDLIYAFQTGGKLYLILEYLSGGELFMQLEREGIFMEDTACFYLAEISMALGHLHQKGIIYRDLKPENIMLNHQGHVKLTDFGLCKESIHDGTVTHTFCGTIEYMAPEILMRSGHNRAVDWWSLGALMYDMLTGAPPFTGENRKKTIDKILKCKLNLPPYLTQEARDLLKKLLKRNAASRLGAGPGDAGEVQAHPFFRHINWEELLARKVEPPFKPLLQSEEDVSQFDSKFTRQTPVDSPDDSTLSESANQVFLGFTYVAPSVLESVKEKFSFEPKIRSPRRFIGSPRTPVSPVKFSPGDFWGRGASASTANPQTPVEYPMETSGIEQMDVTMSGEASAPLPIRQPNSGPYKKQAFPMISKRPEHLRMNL
Chain of UniProt Q5VT25 (whole entry, looked up): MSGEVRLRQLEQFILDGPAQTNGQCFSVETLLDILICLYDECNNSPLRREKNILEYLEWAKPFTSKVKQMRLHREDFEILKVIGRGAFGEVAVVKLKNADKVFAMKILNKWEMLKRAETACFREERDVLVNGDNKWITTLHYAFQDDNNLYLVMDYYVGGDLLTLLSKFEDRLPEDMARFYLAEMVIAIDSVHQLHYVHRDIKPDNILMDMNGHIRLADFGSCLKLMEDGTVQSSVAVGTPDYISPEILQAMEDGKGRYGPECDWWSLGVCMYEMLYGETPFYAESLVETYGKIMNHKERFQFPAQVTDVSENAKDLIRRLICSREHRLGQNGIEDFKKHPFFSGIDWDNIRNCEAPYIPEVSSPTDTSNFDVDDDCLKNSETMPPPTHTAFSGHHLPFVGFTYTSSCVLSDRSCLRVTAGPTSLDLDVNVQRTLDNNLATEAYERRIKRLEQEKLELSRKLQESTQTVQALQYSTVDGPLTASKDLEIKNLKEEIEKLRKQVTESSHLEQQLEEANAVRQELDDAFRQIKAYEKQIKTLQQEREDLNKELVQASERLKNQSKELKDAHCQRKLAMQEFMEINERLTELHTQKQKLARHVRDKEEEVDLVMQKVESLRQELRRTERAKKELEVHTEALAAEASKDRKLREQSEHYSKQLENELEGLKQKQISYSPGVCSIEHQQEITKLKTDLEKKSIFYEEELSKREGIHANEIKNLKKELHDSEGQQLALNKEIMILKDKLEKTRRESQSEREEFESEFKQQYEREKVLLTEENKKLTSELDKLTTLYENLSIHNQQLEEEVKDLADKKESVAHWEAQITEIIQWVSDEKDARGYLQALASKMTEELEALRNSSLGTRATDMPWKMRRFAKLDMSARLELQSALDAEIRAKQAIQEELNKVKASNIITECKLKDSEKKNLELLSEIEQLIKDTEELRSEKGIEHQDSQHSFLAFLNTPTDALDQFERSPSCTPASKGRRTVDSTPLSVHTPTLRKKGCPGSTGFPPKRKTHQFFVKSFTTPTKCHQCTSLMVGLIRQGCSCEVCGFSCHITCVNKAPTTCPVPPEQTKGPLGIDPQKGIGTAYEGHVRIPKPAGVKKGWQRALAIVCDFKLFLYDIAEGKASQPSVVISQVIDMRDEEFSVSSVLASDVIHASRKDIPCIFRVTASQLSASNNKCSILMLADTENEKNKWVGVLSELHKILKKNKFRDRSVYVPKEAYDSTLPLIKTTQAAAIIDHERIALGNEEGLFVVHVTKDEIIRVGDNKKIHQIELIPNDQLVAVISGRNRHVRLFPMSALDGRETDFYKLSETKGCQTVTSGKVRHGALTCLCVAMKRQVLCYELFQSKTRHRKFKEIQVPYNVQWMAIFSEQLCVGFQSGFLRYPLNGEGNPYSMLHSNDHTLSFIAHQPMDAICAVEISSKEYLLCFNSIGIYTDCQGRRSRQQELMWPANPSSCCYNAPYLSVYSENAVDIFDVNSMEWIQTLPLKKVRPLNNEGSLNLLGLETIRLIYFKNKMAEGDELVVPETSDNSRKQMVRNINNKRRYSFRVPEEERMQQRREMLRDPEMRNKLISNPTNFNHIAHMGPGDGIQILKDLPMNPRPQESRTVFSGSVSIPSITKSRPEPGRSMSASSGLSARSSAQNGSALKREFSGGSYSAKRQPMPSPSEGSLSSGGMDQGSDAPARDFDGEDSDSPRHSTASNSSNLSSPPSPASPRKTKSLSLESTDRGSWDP
Chain of UniProt Q00535 (whole entry, looked up): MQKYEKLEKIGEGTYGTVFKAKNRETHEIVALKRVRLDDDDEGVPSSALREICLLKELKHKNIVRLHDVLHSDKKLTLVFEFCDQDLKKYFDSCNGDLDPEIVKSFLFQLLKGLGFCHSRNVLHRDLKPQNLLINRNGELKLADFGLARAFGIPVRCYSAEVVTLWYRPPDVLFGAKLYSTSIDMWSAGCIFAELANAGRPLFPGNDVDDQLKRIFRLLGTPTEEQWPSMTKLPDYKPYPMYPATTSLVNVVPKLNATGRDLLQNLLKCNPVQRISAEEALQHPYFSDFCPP

Series 1 — technique: competition with immobilised ligand; concentration: 1 µM
Structure (SMILES): O=C(Nc1cccnn1)N1CC(C/C=C/c2cncc(Oc3ccc(C(F)(F)F)cn3)n2)C1
CHEK1 (Homo sapiens, UniProt O14757); cell-free assay — remaining binding: 100%.
The remaining binding was 91% (PI4KB (Homo sapiens, UniProt Q9UBF8); cell-free assay).
It gave 100% for remaining binding (PTK2 (Homo sapiens, UniProt Q05397); cell-free assay).
The remaining binding was 100% (CDC42BPA (Homo sapiens, UniProt Q5VT25); cell-free assay).
It gave 79% for remaining binding (PIK3CB (Homo sapiens, UniProt P42338); cell-free assay).
It gave 91% for remaining binding (FES (Homo sapiens, UniProt P07332); cell-free assay).
The remaining binding was 94% (STK35 (Homo sapiens, UniProt Q8TDR2); cell-free assay).
IGF1R (Homo sapiens, UniProt P08069); cell-free assay — remaining binding: 100%.
The remaining binding was 84% (TEK (Homo sapiens, UniProt Q02763); cell-free assay).
The remaining binding was 100% (TEC (Homo sapiens, UniProt P42680); binding).
It gave 100% for remaining binding (CDK5 (Homo sapiens, UniProt Q00535); cell-free assay).

Series 2 — effect on: enzyme activity; action: inhibitor; concentration: 0.5 µM; reference: control
SMILES: CN(C)S(=O)(=O)c1ccc2c(c1)/C(=C/c1cc3c([nH]1)CCCC3)C(=O)N2
RPS6KB1 (Homo sapiens, UniProt P23443) — remaining activity: 96.5%.
GRK2 (Homo sapiens, UniProt P25098) — remaining activity: 95%.
RPS6KA1 (Homo sapiens, UniProt Q15418) — remaining activity: 68.1%.
It gave 93.1% for remaining activity (CSK (Homo sapiens, UniProt P41240)).
For EPHB2 (Homo sapiens, UniProt P29323): remaining activity read 98.4%.
For GRK6 (Homo sapiens, UniProt P43250): remaining activity read 82.6%.
The remaining activity was 37.2% (CSF1R (Homo sapiens, UniProt P07333)).
It gave 10.9% for remaining activity (NUAK1 (Homo sapiens, UniProt O60285)).
The remaining activity was 108% (PIM2 (Homo sapiens, UniProt Q9P1W9)).
The remaining activity was 105% (SGK1 (Homo sapiens, UniProt O00141)).
SRPK3 (Homo sapiens, UniProt Q9UPE1) — remaining activity: 67.2%.

Series 3 — species: human; sample: microsomes or S9; concentration: 2 µM; time: 0.5 h
`CN(C(=O)c1c[nH]nn1)C1c2ccccc2-c2ccccc21` gave a remaining compound of 83.9%.
`O=C(Cn1ccc2c(=O)[nH]ccc21)Nc1ccccc1Br` gave a remaining compound of 88%.
`Cc1ccc2c(c1)nnn2C1CCN(C(=O)N(c2ccccc2)c2ccccc2)CC1` has a remaining compound of 46.4%.
For `COc1cc(/C=N/n2cnnc2)cc(Br)c1OCCOc1ccc(C(C)(C)C)cc1`, the remaining compound was 86.5%.
`O=C1CCCc2sc(CN3CCOCC3)cc21` has a remaining compound of 95.2%.
`O=C(CCS(=O)(=O)c1ccccc1)N(Cc1cccnc1)c1nc2ccc(Cl)cc2s1` gave a remaining compound of 52.3%.
`Cc1ccc(-n2nc(C)c3c2CC(c2ccco2)CC3=O)cc1` (stereo not drawn) has a remaining compound of 16.7%.
For `CCOc1cccc(C2c3cccn3-c3sc4c(c3CN2C(=O)Nc2ccc(C)c(F)c2)CCCC4)c1` (stereo not drawn), the remaining compound was 16.1%.
`COC(=O)[C@@H]1CCCN1C(=O)c1ccc(OC(c2ccc(Cl)cc2)c2ccc(Cl)cc2Cl)c(F)c1F` (stereo partly drawn) gave a remaining compound of 66.5%.
With `CC(=O)c1c(NC2CCCc3ccccc32)[nH]c2c(-c3ccccc3)cccc2c1=O` (stereo not drawn) the remaining compound was 35.9%.
`N#Cc1nnc2ccccc2c1Oc1ccc2ncccc2c1` has a remaining compound of 50.3%.

Series 4 — technique: phase 2a trial; species: idiopathic pulmonary fibrosis patients
Structure (SMILES): CC(C)n1cnc(-c2ccc(F)cc2)c1-c1ncc(C(=O)Nc2ccc(N3CCN(C)CC3)cc2)[nH]1
For dose not given, grade 2, arms pooled: “patients with AST increased” read 1%.
It gave 1% for “patients with AST increased” (dose not given, grade 3, arms pooled).
It gave 0% for “patients with AST increased” (30 mg once daily, adverse event grade 5).
For 30 mg once daily, adverse event grade 2: “patients with AST increased” read 0%.
60 mg once daily, adverse event grade 5 — “patients with AST increased”: 0%.
It gave 1% for “patients with AST increased” (30 mg once daily, adverse event grade 1).

For quick reference, copied from above (series 4):
For 30 mg once daily, adverse event grade 2: “patients with AST increased” read 0%.
60 mg once daily, adverse event grade 5 — “patients with AST increased”: 0%.
It gave 1% for “patients with AST increased” (30 mg once daily, adverse event grade 1).
